Measurements from different studies.
Numbered parts are unrelated; each lists some results of a single study. Changes are numbered by the printed parent chain.

Set 1
Target: CCNF, cyclin fold, Cln2 fusion (human)
Method: yeast growth competition, sequencing
Matrix: yeast
Setting: strong parent motif
Baseline: not given
Direction: higher = stronger binding
Starting sequence: RBL2 docking peptide (human); STTRRRLFVENDS
Change	normalised enrichment score
N11W	8.41
F8S	1.76
L7R	1.17
F8L	5.26
R5I	1.33
V9T	9.02
R4C	8.34
F8Y	5.41
T3R	2.34
S13G	8.22
S1Y	8.52
S13D	8.91
D12K	7.77
R6E	4.86
R4I	6.85
R4H	6.26
E10C	7.41
T2V	6.58
R5N	0.423
L7H	-0.00419
S1R	9.18
R5H	1.47
T3E	2.89
S13L	9.01
R6Y	2

Set 2
Target: TAR DNA-binding protein 43, full length, His tag (TARDBP, Homo sapiens, UniProt Q13148, residues 1-414)
Method: RNA Bind-n-Seq
Form: RNA
Matrix: in vitro
Concentration: 20 nM
Setting: 6-mer, flanks averaged, single round
With: 150 mM LiCl
Baseline: input library
Direction: higher = stronger binding
Sequence	6-mer enrichment (R)
AUCAGA	0.776
UGUCCA	0.929
UUUAGG	1.06
CCAUUU	1.07
UUGCCC	1.14
GAUAUC	0.819
UCCACG	0.858
AGUUGG	1.07
AAACAA	0.865
UUCGUC	0.961
GCAUGC	1.01
GUGUUU	1.83
AUGCGA	0.929
CCAGCC	0.972

Set 3
Target: RING finger protein unkempt homolog, zinc fingers 1-6, GST-SBP tag (UNK, Homo sapiens, UniProt Q9C0B0, residues 30-357)
Method: RNA Bind-n-Seq
Form: RNA
Matrix: in vitro
Concentration: not given
Setting: RNA with constant flanks, human and mouse sites, ends assumed
Baseline: input RNA pool
Direction: higher = stronger binding
Target sequence (chain): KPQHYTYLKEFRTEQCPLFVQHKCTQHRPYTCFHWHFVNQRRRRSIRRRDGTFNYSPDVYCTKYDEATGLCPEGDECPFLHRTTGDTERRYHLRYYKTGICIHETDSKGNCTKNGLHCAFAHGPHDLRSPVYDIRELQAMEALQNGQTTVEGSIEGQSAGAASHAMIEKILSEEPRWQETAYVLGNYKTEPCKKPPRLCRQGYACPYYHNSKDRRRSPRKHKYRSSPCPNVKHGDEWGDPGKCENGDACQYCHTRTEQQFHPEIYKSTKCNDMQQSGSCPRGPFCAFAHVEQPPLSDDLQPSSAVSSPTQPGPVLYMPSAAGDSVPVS
Sequence	bound/input enrichment
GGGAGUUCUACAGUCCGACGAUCAAUAUCAACUAAAAUAUCAUAGUUCUGUGGUAGACAUUGUUUUAUAAUGAAAUAACUGCAACUAGAGAAAACUGUAUAAAAACAUUAAAUUGUCAGUAUUUUUGUAAGGUUCCAUUUUGUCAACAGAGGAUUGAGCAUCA	0.643 ratio
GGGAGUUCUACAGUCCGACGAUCGGUUUUGUUCCUGGCUUUCAGAAGAGCAAUGCCAAGACCCCUCCCAGCGUCCACAUCGUCCUCUGGCAGGAGCACCUGCCCCUCUGCCUCCCACCUGCCCCUUGCACCCCCUGCGGCCCCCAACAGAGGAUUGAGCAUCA	0.471 ratio
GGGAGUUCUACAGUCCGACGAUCGCAGAUGAAGCAGAGAGUCUCAAACUGUGGAACUCAUUCUGUAAUUCUGAUGACCCCUACAACCCUUUAAAUUUUAAGGCUCCUUUUCAAACAUCAGGGGAAAAUGAGAAAGGCUGUCGUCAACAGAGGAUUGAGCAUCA	0.0689 ratio
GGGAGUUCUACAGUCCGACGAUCACAGGUGGUCGUAAUGGUUAUGGUGCAAAACUUUGUAAUAUUUUCAGUACAAAGUUUACAGUAGAAACAGCUUGCAAAGAAUACAAACACAGUUUUAAGCAGACAUGGAUGAAUAAUAUGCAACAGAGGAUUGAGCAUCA	0.258 ratio
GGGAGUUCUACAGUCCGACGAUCCAAGGUGUACCUAAAGAGAAGCUUACUGGUACCAUCCAAAAUGAUAUACUAAAGGAAUUUAUGGUUCGAAAUACAUACAUUUUUCCUCCAGAACCAUCCAUGAAAAUUAUUGCUGACAUACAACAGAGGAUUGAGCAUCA	0.196 ratio
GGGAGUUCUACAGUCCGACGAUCGACCGUGCCCUAGAAUUUGCCCCUGCCUGCCAUCGAUUCAAAAUUCUCAAAGCAGAAUGUUUAGCAAUGCUUGGUCGAUACCCAGAAGCACAGUUUGUGGCCAGUGACAUUUUACGAAUGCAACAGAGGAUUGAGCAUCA	0.327 ratio
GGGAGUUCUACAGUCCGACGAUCGACUGAUUCUCAACUGAACAUUAUGUCGUUACUUUGAUAAGCAUUCCACUUUUGUUAUUUAUUAGUGCUAUCUUUUUUUUUUACGUGUUAAAUCUUGUGAUUAUUAAAAUAAAGUACCAUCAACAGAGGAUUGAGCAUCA	2.35 ratio
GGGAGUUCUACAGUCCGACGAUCAAAGAGAAAAAUCUGGAGCAGUAUAAUAAACUGGACCAGGAUCUUAAUGAAGUCAAAGCUCGAGUAGAAGAACUGGACAGAAAAUAUUACGAAGUAAAAAAUAAGAAAGAUGAACUACAACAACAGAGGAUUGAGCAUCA	0.41 ratio
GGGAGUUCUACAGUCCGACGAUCAUUGAUUUGCUUUACAAUCAUCCACACUGUGUUUUGUGGAUCUUUAAUUAUAUAUAACAAUAGUAGUCAUUUUAAAUAUAUAUUCUGAAAUCUUUGCAAAUUUUAACAGAAGAGUCGAAGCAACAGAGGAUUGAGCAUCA	8.94 ratio
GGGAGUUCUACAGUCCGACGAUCGAUCAUCCAGGCUUAAAGGCUAAAGAAAAUGAUGAAAAUUGUGGUCCUACUACCACUGUUUUUGUUGGCAACAUUUCCGAGAAAGCUUCAGACAUGCUUAUAAGACAACUCUUAGCUAAACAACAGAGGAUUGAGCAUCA	0.254 ratio
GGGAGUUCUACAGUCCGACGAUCGUUAAUCAUAGCUUGGAUUUACAGCCAGUUACUUACUCAGAACCUGCAUUUUGGUGUUCGAUAGCAUAUUAUGAAUUAAAUCAGAGGGUUGGAGAAACCUUCCAUGCAUCACAGCCCUCACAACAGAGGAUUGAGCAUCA	2.25 ratio

Set 4
Target: RNA binding protein fox-1 homolog 2, RRM domain, GST-SBP tag (RBFOX2, Homo sapiens, UniProt O43251-10, residues 100-194)
Method: RNA Bind-n-Seq
Form: RNA
Matrix: in vitro
Concentration: 365 nM
Setting: natural RNA segment, single round, ends assumed
Baseline: no-protein control
Direction: higher = stronger binding
Construct (chain): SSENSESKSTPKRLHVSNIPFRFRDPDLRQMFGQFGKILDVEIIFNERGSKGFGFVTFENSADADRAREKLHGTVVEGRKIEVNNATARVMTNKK
Sequence	RBNS enrichment (R)
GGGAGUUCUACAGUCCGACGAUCGGGGACCUAGAAGCAGCCCAGUGUGUCCCCACCCCUUUUCCGCACUGUCUUGCUAAUGUUCUGAUCACUGUGCGCCCCCUCCCUCUUCAGAAGGACCCUGGGCCUCUUGAUGGAAUUCUCGGGUGCCAA	0.841
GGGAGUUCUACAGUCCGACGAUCCAUUGCAGCAGCCGCGCCCAGCCCAGGGAAGAAAGGAUGGGAAACCCCCGAGGUCUUCCUUGAACAUCAGGCUUCCAGGCCCCGUUAUCUUCGCCCCAGGAAGGGUGCAUUGGAAUUCUCGGGUGCCAA	0.391
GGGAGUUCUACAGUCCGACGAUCAUGCAUCAAACUGGAACCCCUACCUCAUAUUUCCUGCUCCAGGAAGGUUGAGGUUGAAAAAAAAGAAAAAGAGUGAAAUAGAGUAUUUUAUUUGUAUUUAAAAUAACUAUUGGAAUUCUCGGGUGCCAA	0.705
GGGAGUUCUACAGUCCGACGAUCCAUUUUGUUUUUUUAAGAAAAAGAAAAUGAAAGGAAAAAAAUAAAAGAUCCAGUGUCUUUCUUACAACAUAUUCUUUUAUUGCAACAUUUUCCUCAGUUUGGAAAACUGUUGGAAUUCUCGGGUGCCAA	0.551
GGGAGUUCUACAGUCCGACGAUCCCUAAGCAAAGAAAAUACGGCUUCUCUUGCAUUAUUUUCCCUUUUGGUUGGUUUGUUUUCUAGAAGUACGUUCAGAUGCUUUGGGGAAUGCAAUGUAUGAUUUGCUAGCUUGGAAUUCUCGGGUGCCAA	0.322
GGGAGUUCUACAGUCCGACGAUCGCAGAGGGGCUGAAUAGCAGAAGGUUGCACCUCCCCCAACCUUAGAUGUUCUAAGUCUUUCCAUUGGAUCUCAUUGGACCCUUCCAUGGUGUGAUCGUCUGACUGGUGUUUGGAAUUCUCGGGUGCCAA	0.413
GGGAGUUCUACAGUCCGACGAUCGAGGGUUUCGCUAGAACCAUUUUGUGAUUGCCACCAGCCAAGAUGGACUUUCUUCCCACCCCUUGCAGGGAGGUGUGAGCAGGAGACCCCUAGGGUGCCACUGAAUAAGAUGGAAUUCUCGGGUGCCAA	0.462
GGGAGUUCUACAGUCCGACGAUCUGAAGUGAGUUAAUGAGCCUUCAUUAUUUUAAUGCUUAGUGUUUCAGUUUUAUAAGUGAAAAUUUUAUUUUAAAAAACAGUGGUUUUUUUUUUUGGGUAUGUCUGGAUCAUGGAAUUCUCGGGUGCCAA	0.754
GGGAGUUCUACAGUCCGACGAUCUUGAGAUAGCAUACAGUAGAUGUUUAAGAAAUAGUAGGAAGUCCGGUGAGACGGCUGUUUCCAUCAAGAACUCCUAGCACUGCUGUAAAUAUCAUGGUGCCUACUGGAAGUGGAAUUCUCGGGUGCCAA	0.47
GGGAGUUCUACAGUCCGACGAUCAUUGUAUAUUUAGUGUGUGUAUUUUGAUAAUGAUUGAUCUUAAAUCUGUAUACAGAAUAUCAUUGAUAUAAUACUCUUUAGGCAGGAGCACUCUUGCCUUCCCCCAAAAUUGGAAUUCUCGGGUGCCAA	0.379
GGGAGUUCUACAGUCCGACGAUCAGUGGAGGGAACUCAGUGGAGGAUGUGCCCAGCAGUGGCCGGGGCUGCUUCUGUAACCAAGGUCUGGCAGAGUAGCGAUUCCCUGCGUGUUCAGGAAGGGCCCAUUGUGUUGGAAUUCUCGGGUGCCAA	0.717
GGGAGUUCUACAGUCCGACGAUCAACACCCAUUUGGGGUUACCAUGUCCAUCCCCCAAGGGGGGCCCUGCCCCUCGAGUCGAUGGUGUCCCGCAUCUACUCAUGUGAACUGGCCUUGGCGAGGGCUGGUCUGUUGGAAUUCUCGGGUGCCAA	0.427

Some of these lines once more (set 4):
Sequence	RBNS enrichment (R)
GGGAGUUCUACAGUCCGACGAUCGCAGAGGGGCUGAAUAGCAGAAGGUUGCACCUCCCCCAACCUUAGAUGUUCUAAGUCUUUCCAUUGGAUCUCAUUGGACCCUUCCAUGGUGUGAUCGUCUGACUGGUGUUUGGAAUUCUCGGGUGCCAA	0.413
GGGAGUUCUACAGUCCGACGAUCGAGGGUUUCGCUAGAACCAUUUUGUGAUUGCCACCAGCCAAGAUGGACUUUCUUCCCACCCCUUGCAGGGAGGUGUGAGCAGGAGACCCCUAGGGUGCCACUGAAUAAGAUGGAAUUCUCGGGUGCCAA	0.462
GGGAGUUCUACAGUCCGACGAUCCAUUUUGUUUUUUUAAGAAAAAGAAAAUGAAAGGAAAAAAAUAAAAGAUCCAGUGUCUUUCUUACAACAUAUUCUUUUAUUGCAACAUUUUCCUCAGUUUGGAAAACUGUUGGAAUUCUCGGGUGCCAA	0.551
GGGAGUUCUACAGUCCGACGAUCAACACCCAUUUGGGGUUACCAUGUCCAUCCCCCAAGGGGGGCCCUGCCCCUCGAGUCGAUGGUGUCCCGCAUCUACUCAUGUGAACUGGCCUUGGCGAGGGCUGGUCUGUUGGAAUUCUCGGGUGCCAA	0.427
